Published values pooled from the literature.
A part holds a random share of what one study measured. pEC50, pKi: −log10 of the molar value.
UniProt Q99640, sequence (whole entry, looked up): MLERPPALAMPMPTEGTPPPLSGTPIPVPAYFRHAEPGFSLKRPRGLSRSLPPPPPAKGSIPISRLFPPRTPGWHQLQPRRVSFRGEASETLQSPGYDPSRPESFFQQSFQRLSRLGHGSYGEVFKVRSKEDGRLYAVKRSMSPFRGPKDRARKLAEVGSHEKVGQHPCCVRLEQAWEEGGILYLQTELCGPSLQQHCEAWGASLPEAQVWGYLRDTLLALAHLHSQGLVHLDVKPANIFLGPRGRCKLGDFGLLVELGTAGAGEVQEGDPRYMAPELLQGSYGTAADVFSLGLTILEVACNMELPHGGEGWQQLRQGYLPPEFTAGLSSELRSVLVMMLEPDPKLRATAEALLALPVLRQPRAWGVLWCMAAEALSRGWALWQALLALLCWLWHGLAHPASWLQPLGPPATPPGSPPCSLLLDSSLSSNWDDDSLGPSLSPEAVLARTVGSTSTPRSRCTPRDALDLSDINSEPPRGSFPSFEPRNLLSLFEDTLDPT
UniProt P41143, sequence (whole entry, unmodified, looked up): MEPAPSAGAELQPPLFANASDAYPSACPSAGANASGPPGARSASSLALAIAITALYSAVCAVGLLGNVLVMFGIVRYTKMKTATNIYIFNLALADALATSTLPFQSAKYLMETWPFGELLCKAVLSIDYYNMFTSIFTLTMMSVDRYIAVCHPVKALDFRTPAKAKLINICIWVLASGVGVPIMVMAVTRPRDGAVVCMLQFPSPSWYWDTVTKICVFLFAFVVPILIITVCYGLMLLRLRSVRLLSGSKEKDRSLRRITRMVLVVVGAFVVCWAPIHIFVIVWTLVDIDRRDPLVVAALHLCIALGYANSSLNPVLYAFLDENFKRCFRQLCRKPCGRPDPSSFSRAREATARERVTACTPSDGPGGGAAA

Series 1
Structure (SMILES): Cn1cc(-c2cccc(CN3CCC4(CC3)COc3c4ccc4c3CN(C3CCC(=O)NC3=O)C4=O)c2)cn1 (stereo not drawn)
Target: CRBN/Zinc finger protein Helios (Homo sapiens, UniProt Q96SW2+Q9UKS7)
UniProt Q96SW2, sequence (whole entry, looked up): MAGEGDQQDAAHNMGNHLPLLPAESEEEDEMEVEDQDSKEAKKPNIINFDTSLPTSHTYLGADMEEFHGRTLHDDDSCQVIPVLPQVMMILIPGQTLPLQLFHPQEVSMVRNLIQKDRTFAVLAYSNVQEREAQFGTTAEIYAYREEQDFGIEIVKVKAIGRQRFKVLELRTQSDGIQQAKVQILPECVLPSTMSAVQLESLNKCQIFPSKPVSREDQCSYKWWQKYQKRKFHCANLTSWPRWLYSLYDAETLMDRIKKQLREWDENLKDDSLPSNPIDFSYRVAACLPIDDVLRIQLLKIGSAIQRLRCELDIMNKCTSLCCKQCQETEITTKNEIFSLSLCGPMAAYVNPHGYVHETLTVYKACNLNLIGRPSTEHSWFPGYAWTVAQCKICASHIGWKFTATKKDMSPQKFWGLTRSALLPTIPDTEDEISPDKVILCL
UniProt Q9UKS7, sequence (whole entry, looked up): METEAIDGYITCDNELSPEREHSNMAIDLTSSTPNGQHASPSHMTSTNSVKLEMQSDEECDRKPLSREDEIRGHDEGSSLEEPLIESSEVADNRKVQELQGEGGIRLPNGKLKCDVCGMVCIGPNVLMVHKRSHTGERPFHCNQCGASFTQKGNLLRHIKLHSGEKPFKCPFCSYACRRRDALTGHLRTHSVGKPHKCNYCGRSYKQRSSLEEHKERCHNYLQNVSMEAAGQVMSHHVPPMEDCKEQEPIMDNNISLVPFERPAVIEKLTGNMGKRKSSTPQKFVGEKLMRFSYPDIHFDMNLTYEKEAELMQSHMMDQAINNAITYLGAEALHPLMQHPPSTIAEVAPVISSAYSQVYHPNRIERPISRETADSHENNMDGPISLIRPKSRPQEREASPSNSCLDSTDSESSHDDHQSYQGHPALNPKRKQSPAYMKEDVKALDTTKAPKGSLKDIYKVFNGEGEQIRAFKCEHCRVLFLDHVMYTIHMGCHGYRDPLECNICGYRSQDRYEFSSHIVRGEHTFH
Action: degrader
Method: HiBiT
Cell line: HEK293
For 37.04 nM: protein remaining read 16%.
For 0.01694 nM: protein remaining read 112%.
0.4572 nM — protein remaining: 73.1%.
12.35 nM — protein remaining: 19%.

Other studies, line by line
For `C=CCN1C(=O)C(O)(C(=O)O)Oc2cc(F)ccc21` (stereo not drawn), the inhibition was 13% (Arabidopsis thaliana; hypocotyl length; Col-0; 12.5 µg/mL, 7 days, seed germination, dark).
`NC(=O)NCCCCCCN1CCC23c4c5ccc(O)c4OC2c2nc4ccccc4cc2CC3(O)C1C5` (stereo not drawn) gave a pKi of 7.03 (Delta-type opioid receptor (OPRD1, Homo sapiens, UniProt P41143); ligand displacement, radioligand).
The tissue concentration of `COc1cc(C(=O)OCCCN2CCCN(CCCOC(=O)c3cc(OC)c(OC)c(OCc4ccc([N+](=O)[O-])cc4)c3)CC2)cc(OC)c1OC` is reported as 641 ng/mL (male CD-1 mouse, dorsal root ganglia; subcutaneous, dose not given, 0.1667 h).
For `N=C(N)NCCCCCCN1CCC23c4c5ccc(O)c4OC2c2nc4ccccc4cc2CC3(O)C1C5` (stereo not drawn), the pEC50 was 6.69 (Delta-type opioid receptor, with Gi1 (OPRD1, Homo sapiens, UniProt P41143, D95A); G protein activation, agonist).
With `Cc1ccc(O)c(C)c1-c1cnc2[nH]c(-c3cnc(N4CCC(CN5CCN(c6ccc(N7CCC(=O)NC7=O)cc6F)CC5)CC4)nc3)cc2c1C#N` the inhibition was 98.1% (Membrane-associated tyrosine- and threonine-specific cdc2-inhibitory kinase (PKMYT1, Homo sapiens, UniProt Q99640); binding, HTRF; 111.11 nM).

A few entries again (series 1):
0.4572 nM — protein remaining: 73.1%.
